{"data": "Results collected from several papers", "organism": "Escherichia coli", "note": "Lines come from different studies, so protocols differ. ± marks the error that the study gave."}
{"Molecule": "CCN(CC)c1ccc(C=NNC(=O)c2ccc(C)cc2)c(O)c1", "test": "microbial growth, broth dilution", "test system": "ATCC25922", "MIC": "> 256 µg/mL"}
{"Molecule": "CNC(C)C1CCC(N)C(OC2C(N)CC(N)C(OC3OCC(C)(O)C(NC)C3O)C2O)O1 (centres unmarked)", "test": "broth microdilution", "test system": "ATCC 25922", "conditions": "16 to 20 h, 37 °C", "MIC": "3.12 to 6.25 µg/mL"}
{"Molecule": "CCc1cc(=O)c2c(OCC(O)CNC(C)(C)C)c3ccoc3c(OC)c2o1 (centres unmarked)", "test": "microbial growth, broth dilution", "test system": "ATCC25", "conditions": "19 h", "MIC": "> 256 µg/mL"}
{"Molecule": "O=C(O)c1ccc(C=Nc2ncn[nH]2)cc1", "test": "microbial growth, broth dilution", "test system": "ATCC25922", "MIC": "> 256 µg/mL"}
{"Molecule": "O=C(O)c1cn(C2CC2)c2cc(N3CCNCC3)c(F)cc2c1=O", "test": "microbial growth, broth dilution", "test system": "ATCC25", "conditions": "19 h", "MIC": "0.003 µg/mL"}
{"Molecule": "CC1(C)S[C@@H]2[C@H](NC(=O)[C@H](N)c3ccccc3)C(=O)N2[C@H]1C(=O)O", "test": "serial dilution", "test system": "ATCC 12014", "conditions": "24 h, 37 °C", "MIC": "5 ± 0.4 µg/mL"}
{"Molecule": "CN(C)c1cc(NC(=O)CNC(C)(C)C)c(O)c2c1C[C@H]1C[C@H]3[C@H](N(C)C)C(O)=C(C(N)=O)C(=O)[C@@]3(O)C(O)=C1C2=O", "test": "CLSI broth dilution", "test system": "ATCC 25922", "MIC": "0.13 µg/mL"}
{"Molecule": "CC1(C)S[C@@H]2[C@H](NC(=O)[C@H](N)c3ccccc3)C(=O)N2[C@H]1C(=O)O", "test": "broth microdilution", "test system": "ATCC 25922", "conditions": "16 to 20 h, 37 °C", "MIC": "6.25 to 12.5 µg/mL"}
{"Molecule": "Oc1ccc(Cl)cc1C=Nc1ncn[nH]1", "test": "microbial growth, broth dilution", "test system": "ATCC25922", "MIC": "64 µg/mL"}
{"Molecule": "CCn1cc(C(=O)O)c(=O)c2ccc(C)nc21", "test": "broth microdilution", "test system": "ATCC 25922", "conditions": "16 to 20 h, 37 °C", "MIC": "3.12 to 6.25 µg/mL"}
{"Molecule": "CC[C@H](C)[C@H](NC(=O)[C@H](CCCCN)NC(=O)[C@H](CCC(=O)O)NC(=O)[C@H](CCCCN)NC(=O)[C@H](CO)NC(=O)[C@H](CCCCN)NC(=O)[C@H](CCCNC(=N)N)NC(=O)[C@H](Cc1ccccc1)NC(=O)[C@H](Cc1ccccc1)NC(=O)[C@H](CC(=O)O)NC(=O)CNC(=O)[C@H](CC(C)C)NC(=O)[C@@H](N)CC(C)C)C(=O)NCC(=O)N[C@@H](CCCCN)C(=O)N[C@@H](CCC(=O)O)C(=O)N[C@@H](Cc1ccccc1)C(=O)N[C@@H](CCCCN)C(=O)N[C@@H](CCCNC(=N)N)C(=O)N[C@H](C(=O)N[C@H](C(=O)N[C@@H](CCC(N)=O)C(=O)N[C@@H](CCCNC(=N)N)C(=O)N[C@H](C(=O)N[C@@H](CCCCN)C(=O)N[C@@H](CC(=O)O)C(=O)N[C@@H](Cc1ccccc1)C(=O)N[C@@H](CC(C)C)C(=O)N[C@@H](CCCNC(=N)N)C(=O)N[C@@H](CC(N)=O)C(=O)N[C@@H](CC(C)C)C(=O)N[C@H](C(=O)N1CCC[C@H]1C(=O)N[C@@H](CCCNC(=N)N)C(=O)N[C@H](C(=O)N[C@@H](CCC(=O)O)C(=O)N[C@@H](CO)C(=O)O)[C@@H](C)O)C(C)C)[C@@H](C)CC)C(C)C)[C@@H](C)CC", "test": "broth dilution", "test system": "DH5α", "MIC": "3 µg/mL"}
{"Molecule": "CCN(CC)c1ccc(C=NNC(=O)c2ccccn2)c(O)c1", "test": "microbial growth, broth dilution", "test system": "ATCC25922", "MIC": "> 256 µg/mL"}
{"Molecule": "NC[C@H]1O[C@H](O[C@H]2[C@H](O)[C@@H](O[C@H]3O[C@H](CO)[C@@H](O)[C@H](N)[C@H]3O)[C@H](N)C[C@@H]2N)[C@H](O)[C@@H](O)[C@@H]1O.O=S(=O)(O)O", "test": "broth microdilution", "test system": "ATCC 25922, LB medium", "conditions": "16 to 20 h, 37 °C", "MIC": "6.25 µg/mL"}
{"Molecule": "CCc1cc(=O)c2c(OCC(O)CN3CCCCC3)c3ccoc3c(OC)c2o1 (centres unmarked)", "test": "microbial growth, broth dilution", "test system": "ATCC25", "conditions": "19 h", "MIC": "> 256 µg/mL"}
{"Molecule": "C[C@H]1COc2c(N3CCN(C)CC3)c(F)cc3c(=O)c(C(=O)O)cn1c23", "test": "microbial growth, broth dilution", "test system": "ATCC25922", "MIC": "0.024 µg/mL"}
{"Molecule": "C(=Nc1ncn[nH]1)c1ccncc1", "test": "microbial growth, broth dilution", "test system": "ATCC25922", "MIC": "> 256 µg/mL"}
{"Molecule": "CC(C)CC1NC(=O)C(C(=O)NC(C(=O)NC2C(=O)N3C2SC(C)(C)C3C(=O)O)c2ccccc2)=C1O (centres unmarked)", "test": "broth microdilution", "test system": "BW25113, Mueller-Hinton broth", "conditions": "18 h, without clavulanic acid", "MIC": "50 µg/mL"}
{"Molecule": "C(=Nc1ncn[nH]1)c1ccc(-c2ccccc2)cc1", "test": "microbial growth, broth dilution", "test system": "ATCC25922", "MIC": "> 256 µg/mL"}
{"Molecule": "CCCCCCCCCC(=O)N[C@@H](CCCCN)CN1CC(=O)N(c2ccc(N3CN(C[C@H](CCCCN)NC(=O)CCCCCCCCC)CC3=O)cc2)C1", "test": "microbial growth", "test system": "ATCC25922", "MIC": "< 6 µg/mL"}
{"Molecule": "CC1(C)SC2C(NC(=O)C(NC(=O)C3=C(O)C(Cc4ccccc4)NC3=O)c3ccccc3)C(=O)N2C1C(=O)O (centres unmarked)", "test": "broth microdilution", "test system": "BW25113, Mueller-Hinton broth", "conditions": "with: CCCP 50 µg/mL", "MIC": "25 µg/mL"}
{"Molecule": "gentamicin", "test": "broth microdilution", "test system": "K12", "conditions": "18 h, pH 7", "MIC": "0.5 µg/mL"}
{"Molecule": "CC1(C)S[C@@H]2[C@H](NC(=O)Cc3ccccc3)C(=O)N2[C@H]1C(=O)O", "test": "broth microdilution", "test system": "ATCC 25922", "conditions": "37 °C", "MIC": "25 to 50 µg/mL"}
{"Molecule": "CS(=O)(=O)c1ccc(C=Nc2ncn[nH]2)cc1", "test": "microbial growth, broth dilution", "test system": "ATCC25922", "MIC": "> 256 µg/mL"}
{"Molecule": "CC1(C)SC2C(NC(=O)C(NC(=O)C3=C(O)C(Cc4ccc(O)cc4)NC3=O)c3ccccc3)C(=O)N2C1C(=O)O (centres unmarked)", "test": "broth microdilution", "test system": "BW25113, Mueller-Hinton broth", "conditions": "18 h, without clavulanic acid", "MIC": "6.25 µg/mL"}
{"Molecule": "CC[C@@H](C)[C@@H](NC(=O)[C@@H](Cc1c[nH]c2ccccc12)NC(=O)[C@H](N)CCCNC(=N)N)C(=O)N[C@H](CCCNC(=N)N)C(=O)N[C@H](Cc1c[nH]c2ccccc12)C(=O)N[C@@H](C(=O)N[C@H](Cc1c[nH]c2ccccc12)C(=O)N[C@H](CCCNC(=N)N)C(=O)N[C@H](CCCCN)C(=O)N[C@H](CCCCN)C(=O)N[C@H](CC(C)C)C(=O)N[C@H](CCCNC(=N)N)C(N)=O)C(C)C", "test system": "ATCC 25922", "conditions": "1 h, 37 °C, non-dividing cells in PBS", "MIC": "25 to 50 µg/mL"}
{"Molecule": "CC[C@H](C)[C@H](NC(=O)[C@H](CCCNC(=N)N)NC(=O)[C@H](CCCNC(=N)N)NC(=O)[C@@H]1CCCN1C(=O)[C@@H]1CCCN1C(=O)[C@H](CCCNC(=N)N)NC(=O)[C@@H]1CCCN1C(=O)[C@H](CCCNC(=N)N)NC(=O)[C@@H]1CCCN1C(=O)[C@H](CC(C)C)NC(=O)[C@H](Cc1ccc(O)cc1)NC(=O)[C@@H]1CCCN1C(=O)[C@@H]1CCCN1C(=O)[C@H](CCCCN)NC(=O)[C@H](CC(=O)O)NC(=O)[C@@H](N)C(C)C)C(=O)N[C@@H](Cc1ccc(O)cc1)C(=O)N[C@@H](CC(N)=O)C(=O)N[C@@H](CCCNC(=N)N)C(N)=O", "test system": "T7 LysY/I, Mueller-Hinton broth", "conditions": "18 h, 37 °C", "MIC": "25 ± 5 µM"}
{"Molecule": "seco-Arg10-teixobactin", "test system": "ATCC 10798", "MIC": "> 32 µg/mL"}
{"Molecule": "CCN(CC)c1ccc(C=O)c(O)c1", "test": "microbial growth, broth dilution", "test system": "ATCC25922", "MIC": "> 256 µg/mL"}
{"Molecule": "CC1(C)S[C@@H]2[C@H](NC(=O)C(C(=O)O)c3ccccc3)C(=O)N2[C@H]1C(=O)O (some centres unmarked)", "test": "broth microdilution", "test system": "BW25113, Mueller-Hinton broth", "conditions": "with: 2,2'-bipyridyl 30 µg/mL", "MIC": "6.25 µg/mL"}
{"Molecule": "CCOC(=O)c1c(N)csc1-c1cn(-c2ccccc2)nc1-c1ccc(C)cc1", "test": "broth microdilution", "test system": "clinical urinary isolate", "conditions": "compound gamma-irradiated 20 kGy", "MIC": "0.123 ± 0.3 µg/mL"}
{"Molecule": "KFFKFFKFFK (peptide-PNA conjugate, scrambled)", "test": "broth microdilution", "test system": "peptide, UPEC 536, Mueller-Hinton broth", "conditions": "24 h", "MIC": "> 10 µM"}
{"Molecule": "CC1NC(=O)C(C(=O)NC(C(=O)NC2C(=O)N3C2SC(C)(C)C3C(=O)O)c2ccccc2)=C1O (centres unmarked)", "test": "broth microdilution", "test system": "BW25113, Mueller-Hinton broth", "conditions": "18 h, without clavulanic acid", "MIC": "200 µg/mL"}
{"Molecule": "CC[C@H](C)[C@H](NC(=O)[C@H](CCCNC(=N)N)NC(=O)CNC(=O)[C@H](CC(C)C)NC(=O)[C@H](Cc1ccccc1)NC(=O)[C@H](CCCCN)NC(=O)[C@H](CO)NC(=O)[C@H](Cc1ccccc1)NC(=O)[C@H](Cc1c[nH]c2ccccc12)NC(=O)[C@H](CCC(N)=O)NC(=O)[C@@H](NC(=O)[C@@H](N)Cc1ccccc1)C(C)C)C(=O)N[C@@H](CC(C)C)C(N)=O", "test system": "ATCC 25922", "conditions": "1 h, 37 °C, non-dividing cells in PBS", "MIC": "12.5 to 25 µg/mL"}
{"Molecule": "CCc1cc(=O)c2c(OCC3CO3)c3ccoc3c(OC)c2o1 (centres unmarked)", "test": "microbial growth, broth dilution", "test system": "ATCC25", "conditions": "19 h", "MIC": "> 256 µg/mL"}
{"Molecule": "Cc1ccc(C=Nc2nc[nH]n2)c(O)c1", "test": "microbial growth, broth dilution", "test system": "ATCC25922", "MIC": "64 µg/mL"}
{"note": "Some of these lines once more:"}
{"Molecule": "CC1(C)S[C@@H]2[C@H](NC(=O)[C@H](N)c3ccccc3)C(=O)N2[C@H]1C(=O)O", "test": "broth microdilution", "test system": "ATCC 25922", "conditions": "16 to 20 h, 37 °C", "MIC": "6.25 to 12.5 µg/mL"}
{"Molecule": "CC[C@H](C)[C@H](NC(=O)[C@H](CCCCN)NC(=O)[C@H](CCC(=O)O)NC(=O)[C@H](CCCCN)NC(=O)[C@H](CO)NC(=O)[C@H](CCCCN)NC(=O)[C@H](CCCNC(=N)N)NC(=O)[C@H](Cc1ccccc1)NC(=O)[C@H](Cc1ccccc1)NC(=O)[C@H](CC(=O)O)NC(=O)CNC(=O)[C@H](CC(C)C)NC(=O)[C@@H](N)CC(C)C)C(=O)NCC(=O)N[C@@H](CCCCN)C(=O)N[C@@H](CCC(=O)O)C(=O)N[C@@H](Cc1ccccc1)C(=O)N[C@@H](CCCCN)C(=O)N[C@@H](CCCNC(=N)N)C(=O)N[C@H](C(=O)N[C@H](C(=O)N[C@@H](CCC(N)=O)C(=O)N[C@@H](CCCNC(=N)N)C(=O)N[C@H](C(=O)N[C@@H](CCCCN)C(=O)N[C@@H](CC(=O)O)C(=O)N[C@@H](Cc1ccccc1)C(=O)N[C@@H](CC(C)C)C(=O)N[C@@H](CCCNC(=N)N)C(=O)N[C@@H](CC(N)=O)C(=O)N[C@@H](CC(C)C)C(=O)N[C@H](C(=O)N1CCC[C@H]1C(=O)N[C@@H](CCCNC(=N)N)C(=O)N[C@H](C(=O)N[C@@H](CCC(=O)O)C(=O)N[C@@H](CO)C(=O)O)[C@@H](C)O)C(C)C)[C@@H](C)CC)C(C)C)[C@@H](C)CC", "test": "broth dilution", "test system": "DH5α", "MIC": "3 µg/mL"}
